Published values of several laboratories.
Each line is one published result; not all experiments were run side by side. ± gives the spread as reported.

COC(=O)Cc1ccccc1 — IC50 (uncharacterized protein (Bradysia odoriphaga, UniProt A0A2S0X9G4); binding, competitive fluorescence displacement; pH 7.4): > 50 µM
O=c1[nH]c2ccccc2n1C1CCN(CCCC(c2ccc(F)cc2)c2ccc(F)cc2)CC1 — Ki (Signal transducer and activator of transcription 5B, SH2 domain (STAT5B, Homo sapiens, UniProt P51692); phosphopeptide binding, inhibitor, fluorescence polarization; added: FAM-GpYLVLDKW peptide): 29.6 µM
CC[C@@H](NC(=O)CNC(=O)[C@@H](Cc1ccccc1)NC(=O)CNC(=O)[C@H](N)CCC(N)=O)C(=O)N[C@H](CC(=O)O)C(=O)N[C@H](CCC(=O)O)C(=O)N[C@H](CCSC)C(=O)N[C@H](CC(C)C)C(=O)N[C@H](CCC(N)=O)C(=O)NCC(=O)N[C@H](Cc1ccccc1)C(=O)N[C@H](C)C(=O)N[C@@H](C(=O)N[C@H](C)C(=O)N[C@H](CC)C(=O)N[C@H](CCCCN)C(=O)N[C@H](CCSC)C(=O)NCC(=O)N[C@H](C)C(=O)N[C@H](Cc1ccc(O)cc1)C(=O)N[C@H](CCCCN)C(=O)N[C@H](C)C(=O)N[C@H](Cc1c[nH]c2ccccc12)C(=O)O)C(C)C — Ki (hemagglutinin influenza A/California/07/2009 H1N1): 7 µM
C[C@H]1CN(c2n[nH]c3nc(N[C@H]4CC[C@H](NS(=O)(=O)CCC(F)(F)F)CC4)ncc23)CCO1 — remaining binding (SWI/SNF-related matrix-associated actin-dependent regulator of chromatin subfamily E member 1 (Homo sapiens, UniProt Q969G3); Kinobeads competition, measured: SMARCE1; 0.032 µM, unit not given; reference: vehicle): 1.13
Oc1cccc([C@]23CCC[C@H]([C@H]2O)N(CC=Cc2ccccc2)CC3)c1 — EC50 (Delta-type opioid receptor (Oprd1, Rattus norvegicus, UniProt P33533); agonist; C6 cells expressing δ-opioid receptor, cell membranes): 0.253 µM
CO[C@H]1C[C@@H]2CC[C@@H](C)[C@@](O)(O2)C(=O)C(=O)N2CCCC[C@H]2C(=O)O[C@H]([C@H](C)C[C@@H]2CC[C@@H](OC(=O)NCCOCCOCCOCCOCCOCCOCCOCCOCCC(=O)N3CCc4cc(Cn5nc(-c6ccc7oc(N)nc7c6)c6c(N)ncnc65)ccc4C3)[C@H](OC)C2)C[C@@H](O)[C@H](C)/C=C(\C)[C@@H](O)[C@@H](OC)C(=O)[C@H](C)C[C@H](C)/C=C/C=C/C=C/1C — vomiting incidence (patients with advanced solid tumours; intravenous, 12 mg weekly, grade 3 or higher): 16.7%
CCCCCCCC[C@H]1O[C@H]1C/C=C/C=C/[C@H](O)CC(=O)NC1=C[C@](C)(CC)OC1=O — IC50 (Na(+)-translocating NADH-quinone reductase subunit B, whole Na+-NQR complex (nqrB, Vibrio cholerae serotype O1, UniProt Q9KPS2, R151A); enzyme activity, inhibitor; NqrB-R151A mutant): < 0.01 µM
O=C(Cc1ccc(Br)cc1)N[C@H]1CCOC1=O — IC50 (expR (Pectobacterium carotovorum, UniProt Q4KS34)): 3.5 µM
CC[C@H](C)[C@@H]1NC(=O)[C@@H]2CCCN2C(=O)[C@H](CC(C)C)NC(=O)[C@H](CC(C)C)NC(=O)CNC(=O)[C@@H](NC(=O)[C@@H](NC(=O)[C@H](CC(=O)O)NC(=O)CNC(=O)[C@@H](NC(=O)[C@H](C)NC(=O)CNC(=O)[C@H](CCCCN)NC(=O)[C@H](CC(C)C)NC(=O)[C@H](CC(C)C)NC(=O)[C@H](CCCCN)NC(=O)CNC(=O)[C@@H](NC(=O)[C@@H](N)CC(C)C)C(C)C)C(C)C)C(C)C)CSSC[C@@H](C(=O)O)NC1=O — log2 fold change (RNA-seq, measured: Lyrm7; mouse, traumatic brain injury model, frontal cortex and hippocampus; dose not given; reference: TBI alone): 1.24
Brc1ccc2c(c1)C(c1ccccn1)=NCc1c(-c3cnco3)ncn1-2 — IC50 (GABRG2/GABRA2, with β3 subunit (Homo sapiens, UniProt P18507+P47869)): 0.32 µM
COc1cc(Nc2ncc(F)c(Nc3ccc4c(n3)NC(=O)C(C)(C)O4)n2)cc(OC)c1OC — IC50 (Histamine H3 receptor (HRH3, Homo sapiens, UniProt Q9Y5N1)): > 10 µM
CC[C@@H](NC(=O)CNC(=O)[C@@H](CC(C)C)NC(=O)CNC(=O)[C@H](N)CCC(N)=O)C(=O)N[C@H](CC(=O)O)C(=O)N[C@H](CCC(=O)O)C(=O)N[C@H](CCSC)C(=O)N[C@H](CC(C)C)C(=O)N[C@H](CCC(N)=O)C(=O)NCC(=O)N[C@H](Cc1ccccc1)C(=O)N[C@H](C)C(=O)N[C@@H](C(=O)N[C@H](C)C(=O)N[C@@H](C(=O)N[C@H](CCCCN)C(=O)N[C@H](CCSC)C(=O)NCC(=O)N[C@H](C)C(=O)N[C@H](Cc1ccc(O)cc1)C(=O)N[C@H](CCCCN)C(=O)N[C@H](C)C(=O)N[C@H](Cc1c[nH]c2ccccc12)C(=O)O)C(C)C)C(C)C — Ki (hemagglutinin influenza A/California/07/2009 H1N1): 6 µM
C[C@]1(CO)Cc2ncn(-c3ccc(C#N)c(Cl)c3)c2C(=O)O1 — subjects with drug-related dysgeusia (human; 20 mg single dose): 0%
CN[C@]1(c2ccccc2Cl)CCCCC1=O — IC50 (Neuronal acetylcholine receptor subunit alpha-7 (CHRNA7, Homo sapiens, UniProt P36544); channel function, antagonist, IonWorks Barracuda): 17.4 µM
Nc1ncnc2c1ncn2[C@@H]1O[C@H](COP(=O)(O)OP(=O)(O)OP(=O)(O)O)[C@@H](O)[C@H]1O — Kd (Hepatocyte growth factor receptor (MET, Homo sapiens, UniProt P08581, C1091S/C1146S/F1200I/K1232C); binding): 74 ± 6 µM

Excerpt of the above:
CCCCCCCC[C@H]1O[C@H]1C/C=C/C=C/[C@H](O)CC(=O)NC1=C[C@](C)(CC)OC1=O — IC50 (Na(+)-translocating NADH-quinone reductase subunit B, whole Na+-NQR complex (nqrB, Vibrio cholerae serotype O1, UniProt Q9KPS2, R151A); enzyme activity, inhibitor; NqrB-R151A mutant): < 0.01 µM
O=C(Cc1ccc(Br)cc1)N[C@H]1CCOC1=O — IC50 (expR (Pectobacterium carotovorum, UniProt Q4KS34)): 3.5 µM
